Measured values collected from several papers.
A part holds a random share of what one study measured.

Study 1
Target: Histone acetyltransferase KAT6A, winged helix 2, GST fusion (KAT6A, Homo sapiens, UniProt Q92794, residues 85-181)
Technique: protein binding microarray
Molecule type: double-stranded DNA, one strand shown
Medium: in vitro
Tested at: not given
Notes: 8-mer, flanks averaged, mean of 2 arrays, mostly near background
Reference: not given
Reading: higher = stronger binding
Measurement: E-score
Target sequence (chain): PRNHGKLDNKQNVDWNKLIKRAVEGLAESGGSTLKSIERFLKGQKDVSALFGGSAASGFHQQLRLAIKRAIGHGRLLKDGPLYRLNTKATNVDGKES
AGTCCTTG: -0.044
CCAAGTCA: -0.126
CCATATAA: -0.0614

Study 2
Target: Interferon regulatory factor 7, full length, phosphomimetic (IRF7, Homo sapiens, UniProt Q92985, residues 1-503, S471D/S472D/S475D/S476D/S477D/S483D/S484D/S487D)
Technique: protein-binding microarray
Molecule type: double-stranded DNA, one strand shown
Medium: in vitro
Tested at: 2200 nM top
Notes: 60-bp whole probe
Together with: salmon DNA 0.4 mg/ml
Reference: random background probes
Reading: higher = stronger binding
Measurement: fitted relative affinity
Residues (chain): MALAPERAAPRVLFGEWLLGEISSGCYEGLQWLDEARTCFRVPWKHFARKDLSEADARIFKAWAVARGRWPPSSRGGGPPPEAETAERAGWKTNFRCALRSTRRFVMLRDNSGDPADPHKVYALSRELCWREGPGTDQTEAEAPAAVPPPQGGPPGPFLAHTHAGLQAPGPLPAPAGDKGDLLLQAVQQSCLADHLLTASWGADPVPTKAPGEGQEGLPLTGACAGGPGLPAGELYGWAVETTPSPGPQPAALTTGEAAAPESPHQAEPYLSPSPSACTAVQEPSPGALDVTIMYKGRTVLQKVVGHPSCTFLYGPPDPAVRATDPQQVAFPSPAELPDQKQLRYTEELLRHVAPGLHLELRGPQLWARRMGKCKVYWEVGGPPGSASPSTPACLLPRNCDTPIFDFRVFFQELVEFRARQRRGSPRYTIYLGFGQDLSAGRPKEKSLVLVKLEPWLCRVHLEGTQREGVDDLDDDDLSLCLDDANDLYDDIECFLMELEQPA
GCCTAGCACGACGATATCGGCACTGGAGACGTGCTAGTCTTGATTCGCTTGACGCTGCTG: -0.242 z-score
GCCTAGCACGACGATCTCAGTTTCGAAACGTGCTAGGTCTTGATTCGCTTGACGCTGCTG: 3.53 z-score
GCCTAGCACTATTACCTCATCTTTCCCTGCGTGCTAGTCTTGATTCGCTTGACGCTGCTG: 2.11 z-score

Other studies, line by line
CBF1 full length, His-tagged: Centromere-binding protein 1, full length, His-tagged (CBF1, Saccharomyces cerevisiae, UniProt P17106, residues 1-351)
Sequence of UniProt P17106 (whole entry, looked up): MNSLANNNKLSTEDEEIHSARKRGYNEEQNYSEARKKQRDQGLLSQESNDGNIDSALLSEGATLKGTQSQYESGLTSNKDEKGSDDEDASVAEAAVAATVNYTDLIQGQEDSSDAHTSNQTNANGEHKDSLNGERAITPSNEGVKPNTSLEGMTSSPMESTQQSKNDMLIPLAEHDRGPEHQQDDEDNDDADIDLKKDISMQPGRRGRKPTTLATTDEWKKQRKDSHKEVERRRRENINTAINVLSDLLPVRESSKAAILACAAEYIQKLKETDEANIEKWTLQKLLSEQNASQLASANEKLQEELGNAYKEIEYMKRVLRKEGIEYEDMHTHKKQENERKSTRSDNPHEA
CATGTCTTGCACTGTCACACGATTGTAATTCAATTGGTCTTGATTCGCTTGACGCTGCTG  fluorescence intensity (CBF1 full length, His-tagged; competition protein-binding microarray; double-stranded DNA, one strand shown, in vitro; 2 µM, whole 60-bp probe, lowest competitor level, together with: Pho4 competitor, 0.05 µM; higher = stronger binding): 134 a.u.
PhoQ, residues 284 288 289 292 302 303 DDMDFR  fold induction (PhoP, residues 12 14 15 18 19 AQALL (Escherichia coli, UniProt P23836); Sort-seq, refers to: YFP reporter; E. coli; PhoQ-PhoP variant library, together with: 10 µM Mg2+; reference: high Mg2+ state, higher = stronger signaling): 1.08
GTCTCCACAGCTTTTGACATGACAATCTCGGCGCAAGTCTTGATTCGCTTGACGCTGCTG  fluorescence intensity (CBF1 full length, His-tagged; competition protein-binding microarray; double-stranded DNA, one strand shown, in vitro; 2 µM, whole 60-bp probe, lowest competitor level, together with: Pho4 competitor, 0.05 µM; higher = stronger binding): 68 a.u.
TCCACCAGTGGGCCCAGTGTGACGGCCACACTGGACGTCTTGATTCGCTTGACGCTGCTG  fluorescence intensity (CBF1 full length, His-tagged; competition protein-binding microarray; double-stranded DNA, one strand shown, in vitro; 2 µM, whole 60-bp probe, lowest competitor level, together with: Pho4 competitor, 0.05 µM; higher = stronger binding): 67.4 a.u.

Excerpt of the above (study 2):
GCCTAGCACGACGATCTCAGTTTCGAAACGTGCTAGGTCTTGATTCGCTTGACGCTGCTG: 3.53 z-score
